Measurements gathered from unrelated publications.
Numbered parts are unrelated; each lists some results of a single study. Changes are numbered by the printed parent chain.

Study 1 — target: CCNA2, cyclin fold, Cln2 fusion (human); method: yeast growth competition, sequencing; matrix: yeast; notes: strong parent motif; reference: not given; reading: higher = stronger binding
Parent: WEE1 docking peptide (human); CTLRQKLIFSPCS
Under “normalised enrichment score”, `CTLAQKLIFSPCS [R4A]` is recorded as 0.458.
For `CTLRAKLIFSPCS [Q5A]`, “normalised enrichment score” read 1.19.
Under “normalised enrichment score”, `CTLRQKLAFSPCS [I8A]` is recorded as 1.26.
`CTLRQKLIFSACS [P11A]`: “normalised enrichment score” 1.47.
`ATLRQKLIFSPCS [C1A]` — result for “normalised enrichment score”: 1.2.
`CTLRQKLIASPCS [F9A]` — result for “normalised enrichment score”: 0.147.
`CTARQKLIFSPCS [L3A]` — result for “normalised enrichment score”: 3.49.

Study 2 — method: protein-binding microarray; molecule type: double-stranded DNA, one strand shown; matrix: in vitro; concentration: 2540 nM top; notes: 60-bp whole probe; with: salmon DNA 0.4 mg/ml; reference: random background probes; reading: higher = stronger binding; all sequences stand within: GCCTAGCAC … GTCTTGATTCGCTTGACGCTGCTG
Target: Interferon regulatory factor 3, full length, phosphomimetic (IRF3, Homo sapiens, UniProt Q14653, residues 1-427, S386D/S396D/S398D/S402D/T404D/S405D)
Construct (chain): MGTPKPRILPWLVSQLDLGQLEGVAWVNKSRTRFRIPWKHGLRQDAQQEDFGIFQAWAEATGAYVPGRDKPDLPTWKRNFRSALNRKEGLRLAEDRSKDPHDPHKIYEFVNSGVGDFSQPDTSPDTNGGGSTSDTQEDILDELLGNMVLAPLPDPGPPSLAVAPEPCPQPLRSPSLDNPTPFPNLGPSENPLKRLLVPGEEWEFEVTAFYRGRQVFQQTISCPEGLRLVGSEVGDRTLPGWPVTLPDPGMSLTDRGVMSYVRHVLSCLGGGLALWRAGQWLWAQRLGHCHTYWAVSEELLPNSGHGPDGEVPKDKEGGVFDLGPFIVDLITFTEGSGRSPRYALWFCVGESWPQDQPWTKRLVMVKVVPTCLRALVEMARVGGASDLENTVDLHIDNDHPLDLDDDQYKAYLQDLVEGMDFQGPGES
For `GACGGATCCCTTTTCCTGACGTGCTAG`, “fitted relative affinity” read 5.93 z-score.
Under “fitted relative affinity”, `GACGATTTCAGACTGGAGACGTGCTAG` is recorded as 0.965 z-score.
For `TTAGATATCGGGACAGGATTAGTGCTA`, “fitted relative affinity” read 0.113 z-score.
For `GTCGAACTGAGTTTCGAGACGTGCTAG`, “fitted relative affinity” read 1.61 z-score.
For `GACGATTTCGGGGTTCGAGACGTGCTA`, “fitted relative affinity” read 1.19 z-score.
Under “fitted relative affinity”, `GACGAACTGGGGTATTGAGACGTGCTA` is recorded as -0.534 z-score.
Under “fitted relative affinity”, `AGAGTTCCAGACAGCTCCCTGTGCTAG` is recorded as 0.579 z-score.
For `GAGAGAGCTTGTCTGCAGCCGTGCTAG`, “fitted relative affinity” read -0.941 z-score.
For `TTAGGTTTCCTACTGCTGTAGTGCTAG`, “fitted relative affinity” read 5.05 z-score.
For `GACGATTTCAGTCTCGATACGTGCTAG`, “fitted relative affinity” read 2.76 z-score.
For `GACGGTCTCGGGTATCGGGACGTGCTA`, “fitted relative affinity” read 0.311 z-score.
`TTAGGTATCGACACGGGGTTAGTGCTA` — result for “fitted relative affinity”: -0.0237 z-score.
`TTGTCTTTTCATTTTCTTTAGTGCTAG` — result for “fitted relative affinity”: 3.27 z-score.
`CACGGTTTCCTTTTCCTGACGTGCTAG`: “fitted relative affinity” 10.6 z-score.
Under “fitted relative affinity”, `TTAGCTCTCGGTTTCGGTTAGTGCTAG` is recorded as 4.65 z-score.
For `ATGTAATTCCTGCCTGAGCTCGTGCTA`, “fitted relative affinity” read -0.332 z-score.
`GACGGTTTCGGCCTGGGGACGTGCTAG`: “fitted relative affinity” 3.12 z-score.
`GACGGACTGGACACTGGTGACGTGCTA` — result for “fitted relative affinity”: -0.502 z-score.
`TTAGTTTTCAGTCTCGATTAGTGCTAG` — result for “fitted relative affinity”: 3.96 z-score.
For `TTAGATTTCAGTAACGATTAGTGCTAG`, “fitted relative affinity” read 0.643 z-score.
`GACAATATCGGGACTGGAGACGTGCTA`: “fitted relative affinity” 0.144 z-score.

Study 3 — method: RNA Bind-n-Seq; molecule type: RNA; matrix: in vitro; concentration: 365 nM; reference: no-protein control; reading: higher = stronger binding
Target: RNA binding protein fox-1 homolog 2, RRM domain, GST-SBP tag (RBFOX2, Homo sapiens, UniProt O43251-10, residues 100-194)
Notes: natural RNA segment, single round, ends assumed
Residues (chain): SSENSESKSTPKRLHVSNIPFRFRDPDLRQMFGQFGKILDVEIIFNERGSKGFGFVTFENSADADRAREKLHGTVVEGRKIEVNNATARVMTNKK
Under “RBNS enrichment (R)”, `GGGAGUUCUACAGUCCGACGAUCUUGGCCUGCGUGUUUAGAAGCUCCCUGAAAUCAGUUAGCAUCCUAAUACGAGUCAGAUGCUGCAGAAAUGUAAGGCACUUCAAGUCACUUAUGGGUUGGCUUGGUUUGGUUGGAAUUCUCGGGUGCCAA` is recorded as 1.07.
For `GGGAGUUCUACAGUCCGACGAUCCUCUCCCCUUUUUAUAAUGUAGAAGAAAGUAAUUGUCCUGUCUCAUUUGGGAAUUGAAUGUGGCCUCAGAUUUCUUCUAGUACUUGUUUUCGAUACAUAAUUAUGGUUUCUGGAAUUCUCGGGUGCCAA`, “RBNS enrichment (R)” read 7.98.
`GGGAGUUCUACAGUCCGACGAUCGACCCUGUAUGAAUAGUACCAAAGCAUUACCGCAUGGUAGAGAACACACUCGAUUAAAAAUGUUAAGCUAUCUGAAAAAUAAAAUGUGCAAGUCUUCAGGAUGGCACAAAUGGAAUUCUCGGGUGCCAA`: “RBNS enrichment (R)” 2.39.
For `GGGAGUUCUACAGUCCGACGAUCCAUAAGGAGGGAACCCAGUACACAAUUAUUUUUUAUUUGGGAAUCAGGGAAUAGUUCCCAAAUAUACAGGAUUUAUUGAUAAGAUUUUUUUUCUUCCCUUCAUAUAUCCAUGGAAUUCUCGGGUGCCAA`, “RBNS enrichment (R)” read 0.737.
For `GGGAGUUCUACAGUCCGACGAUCUUGUUGAGGUACCAUAUAGCCAGGGUGCUAGGUGAUGAGUGGUGUUAGCAUGUGCAAUAGGAACUACUGGUUUGCUGUGUAAAUGGAUGUCAGGAUCCAGCAAAACUACUUGGAAUUCUCGGGUGCCAA`, “RBNS enrichment (R)” read 21.1.
Under “RBNS enrichment (R)”, `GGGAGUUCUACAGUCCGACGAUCAGCACAGACAGUGUUUUUGACCCUGACAGCCCUGGCUUAGCUUUUGGCUUCCAUGAAUCAGUACUGUUGUUAAAAGCAGAGCUCUGCUGUUAAGAGGUUCUGUUUCUAAGUGGAAUUCUCGGGUGCCAA` is recorded as 0.257.
`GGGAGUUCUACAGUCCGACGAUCGUGUGUGUGUGUGUGUAUGUUCAUGUACACUUGGCUGUCAGGCUUUCUGUGCAUGUACUAAAAAAGGAGAAAUUAUAAUAAAUUAGCCGUCUUGCGGCCCCUAGGCCUAAUGGAAUUCUCGGGUGCCAA` — result for “RBNS enrichment (R)”: 3.47.
`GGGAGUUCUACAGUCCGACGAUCGCAGGGGUCUUUGCUCUUGAAGCCCAGGAUUGGGCAUGACCUGGUAGGAGCCUCUGUUCUUACCUAUUUCCAUAUACAGCUGCCUGGAGGAUGCUUUUUUUCCAGGACAGUGGAAUUCUCGGGUGCCAA` — result for “RBNS enrichment (R)”: 0.387.
`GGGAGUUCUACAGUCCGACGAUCGAAAAUUUCAAUUGCUAAAAAAAAAUCAAAGCACUCAUUCACUUGGGGGGAGGAUCCUACGCAGGGGGGACUUGGUGCGUAUAUUAAGGGCUAUAUUUUUCUAGCAUUUGUGGAAUUCUCGGGUGCCAA`: “RBNS enrichment (R)” 1.17.
`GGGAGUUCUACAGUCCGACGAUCUCACUUCCACAAAUGGCAUCUCCAAGUAAGCUGUCACCUGGUACACAUGGAGGUGGAGCCUGCAGCUGGAGUGAGGCGCACACUUGACUCUACUUGCAGGUGGUUUGCUGUGGAAUUCUCGGGUGCCAA`: “RBNS enrichment (R)” 0.259.
`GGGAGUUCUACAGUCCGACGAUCAGGCAGCAUUUAAGCGGGAUCCUUAGCAAGACAGAAUCCAGCAAAACCCUUUCCCCUCUCAAGCCAGGAGUCUCAUCUGCUACAUUUUUUUUAACCACCUCUGAUUUCCAUGGAAUUCUCGGGUGCCAA` — result for “RBNS enrichment (R)”: 1.97.
For `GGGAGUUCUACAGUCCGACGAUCGGUGUCACCGUCUUAGCCCUUUGUUUUCCUUACUAGAGUAUCUUUCCCGCACCCCUAGGUUUGUAUUCUGGUUCUACUGGCUUUUCUCAGUGGGACACCAAGGUAGAAAGUGGAAUUCUCGGGUGCCAA`, “RBNS enrichment (R)” read 0.334.

Study 4 — method: RNAcompete; molecule type: RNA; matrix: in vitro; concentration: 20 nM; notes: 7-mer, probes averaged, single round; reference: mean of 7-mers; reading: higher = stronger binding
Target: PABPC1L2, full length, GST fusion (mouse, UniProt A0ABA7IW68)
Target sequence (chain): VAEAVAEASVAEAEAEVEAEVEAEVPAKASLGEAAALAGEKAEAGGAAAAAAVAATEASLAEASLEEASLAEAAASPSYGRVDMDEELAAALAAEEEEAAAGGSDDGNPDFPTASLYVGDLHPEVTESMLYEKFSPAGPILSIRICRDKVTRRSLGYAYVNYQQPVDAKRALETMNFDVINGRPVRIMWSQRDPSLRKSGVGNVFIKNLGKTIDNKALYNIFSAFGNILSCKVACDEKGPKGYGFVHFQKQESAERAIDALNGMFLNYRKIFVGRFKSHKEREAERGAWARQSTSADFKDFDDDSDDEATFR
`GGGGUGG` has a 7-mer Z-score of 0.253.
For `CUAAAGU`, the 7-mer Z-score was 0.0823.
With `UAUUCGA` the 7-mer Z-score was -0.132.
With `AUAUGAU` the 7-mer Z-score was 0.0134.
With `AACAUCA` the 7-mer Z-score was 0.561.
With `GCUAAGG` the 7-mer Z-score was 0.0297.
For `GUUGGUA`, the 7-mer Z-score was -0.144.
`UAGACAC` gave a 7-mer Z-score of -0.0989.
`CGGUAAG` gave a 7-mer Z-score of -0.168.
`GAAUAGU` has a 7-mer Z-score of -0.17.
`GUCUCCU` has a 7-mer Z-score of -0.389.
`UAUGGAA` gave a 7-mer Z-score of 0.204.
`GGGCCCG` gave a 7-mer Z-score of -0.0138.
For `AGCACAU`, the 7-mer Z-score was -0.117.
The 7-mer Z-score of `UCUGCGC` is reported as -0.333.
`ACGUAGG` has a 7-mer Z-score of 0.046.
For `CUAAUAU`, the 7-mer Z-score was -0.267.
With `UAGUGAA` the 7-mer Z-score was 0.119.
With `AGGCUAU` the 7-mer Z-score was 0.137.
`UUUACAA` gave a 7-mer Z-score of 0.164.
`GACGAAU` gave a 7-mer Z-score of -0.0772.
`UCAAGGA` gave a 7-mer Z-score of -0.0373.
`UUGAGUC` gave a 7-mer Z-score of -0.362.
With `UUAACUC` the 7-mer Z-score was -0.369.
With `CCCUACU` the 7-mer Z-score was -0.296.

Repeated from above (study 2):
`TTGTCTTTTCATTTTCTTTAGTGCTAG` — result for “fitted relative affinity”: 3.27 z-score.
`TTAGTTTTCAGTCTCGATTAGTGCTAG` — result for “fitted relative affinity”: 3.96 z-score.
`GACGGTTTCGGCCTGGGGACGTGCTAG`: “fitted relative affinity” 3.12 z-score.
For `TTAGATATCGGGACAGGATTAGTGCTA`, “fitted relative affinity” read 0.113 z-score.
